Published values of several laboratories.
A part holds a random share of what one study measured.

Sample 1
Target: Ras GTPase-activating protein-binding protein 1, RRM domain (G3BP1, Homo sapiens, UniProt Q13283)
Sequence of UniProt Q13283 (whole entry, looked up): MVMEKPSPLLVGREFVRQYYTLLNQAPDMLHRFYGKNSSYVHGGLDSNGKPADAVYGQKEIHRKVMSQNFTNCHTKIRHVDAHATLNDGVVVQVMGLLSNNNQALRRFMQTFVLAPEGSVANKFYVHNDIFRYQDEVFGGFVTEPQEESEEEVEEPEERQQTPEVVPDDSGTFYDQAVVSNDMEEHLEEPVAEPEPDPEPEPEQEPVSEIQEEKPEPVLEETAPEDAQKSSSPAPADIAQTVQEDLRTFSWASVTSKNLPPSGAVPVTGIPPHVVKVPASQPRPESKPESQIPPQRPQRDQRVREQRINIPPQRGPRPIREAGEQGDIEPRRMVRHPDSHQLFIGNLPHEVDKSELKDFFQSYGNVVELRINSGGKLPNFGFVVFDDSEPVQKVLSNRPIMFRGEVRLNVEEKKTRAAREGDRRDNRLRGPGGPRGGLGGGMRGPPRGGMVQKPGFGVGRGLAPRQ
Technique: RNA Bind-n-Seq
Molecule type: RNA
Medium: in vitro
Concentration: 1 µM
Notes: whole 134-nt RNA, ends assumed
Added: 150 mM KCl
Relative to: input library
Reading: higher = stronger binding
All sequences stand within: GGGAGUUCUACAGUCCGACGAUC … UGGAAUUCUCGGGUGUCAAGG
Oligonucleotide	log2 enrichment
CUGUGCUACACAUCGUAUGUACCGAAUCGGGGAAAAAGGGGAAAAAGGGGAAAAAAAGGGGAAAGUAUUAUGUUACGCCGUUCGGAUCUG	0.797
CUUUGGUUGACAGGAAGUUCCUUUUCCAGGCAGGUCCCGUUGCCACCUCCUGCUCACUCAGUCCCGGGCUCUGCCGAGUGGUCCUGGGAA	-0.103
UGUGUGUUAUAUAUUUAUUUUUAAUUGCAGAUGACAGGAUUGGACAUUGAGAAGGACCAGAUUAUUGAGAUGGCCUGUCUGAUAACUGAC	-0.765
AAGUCCUGUGCUACACAUCGUAUGUACCGAAUCGGGGAAAAGGGAAAAGGAAAAGGGAAAGUAUUAUGUUACGCCGUUCGGAUCUGCACU	-0.162
GUCCUGUGCUACACAUCGUAUGUACCGAAUCAAACCCAAACCCCCAAACCCCCCCAAAAAAGUAUUAUGUUACGCCGUUCGGAUCUGCAC	-0.219
CUCAAGUCCUGUGCUACACAUCGUAUGUACCGAAUCGGAGGAAAGGAAAAAGGAAAGUAUUAUGUUACGCCGUUCGGAUCUGCACUUCCA	-0.264
CUUGACCCUCAACACCAACCAUGGGCAUAUCCUGGUGGAUUACUCCAAGAACCUGGUGACGGAGGACGUGAUGCGGAUGCUGGUGGACUU	-0.404
ACCAUACUUGACAACUUCUGAUUGAAUGCCCAUGCCCAAUGCCAACAUCCACGAACGCCAAUGACCAAUGCAGUACAAUGCCAGUGUUUC	-0.0516
UCAAGUCCUGUGCUACACAUCGUAUGUACCGAAUCGGCCCGGGGCCCGGCCCGGGAAAGUAUUAUGUUACGCCGUUCGGAUCUGCACUUC	-0.528
CACAGACAACACGCACCCACACAGACACAGAGGGAAGGGGUUGGGAUGGGGACAGGGUGCACAGCAGGGCGGGGUAGCACCCCAGCCCCU	-0.31
UCUCAGCACCCUCGUGAAACUGGACAAGAAGCCAGUGGAGACCAACGGUCCUGAUGCCAAUCACGAGUACAGUACAAGCAGCCAGCAUAU	-0.0706
CCUGUGCUACACAUCGUAUGUACCGAAUCGGGGUUUUUUGGUUUUUUGGGUUUUUUGGGGAAAGUAUUAUGUUACGCCGUUCGGAUCUGC	-0.293
CUUUGUAAUGGGAACUGCCUCUUUCCUGUUGUUGUUAAUGAAAAUGUCAGAAACCAGUUAUGUGAAUGAUCUCUCUGAAUCCUAAGGGCU	-0.0733
UAACUUUAGAGGAGGAUCUGAUGGAUAUGGCAAUGGACGUGGAUUUGGGGAUGGCUAUAAUGGGUAUGGAGGAGGACCUGGAGGUGGCAA	-0.698

Sample 2
Target: Histone acetyltransferase KAT6A, winged helix 2, GST fusion (KAT6A, Homo sapiens, UniProt Q92794, residues 85-181)
Technique: protein binding microarray
Molecule type: double-stranded DNA, one strand shown
Medium: in vitro
Concentration: not given
Notes: 8-mer, flanks averaged, mean of 2 arrays, mostly near background
Relative to: not given
Reading: higher = stronger binding
Construct (chain): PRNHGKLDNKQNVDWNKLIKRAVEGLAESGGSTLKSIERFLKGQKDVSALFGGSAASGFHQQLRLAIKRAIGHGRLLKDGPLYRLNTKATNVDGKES
Oligonucleotide	E-score
AACCTGCA	0.0355
AGTTGAAT	0.0787
CTTCACTC	-0.0268
AATCGGTA	-0.112
CCTTGTGA	0.164
GTCAGATA	-0.0739
ACCAAGTA	-0.032
GAAGGTAA	0.0926
ATTAGTAG	0.0735
ATTGGGAC	0.0443
AACTCGAA	0.0754
AATCATGA	0.0919
GCGACTCA	-0.0494
AGGCCAAT	-0.167
ACTCAAAT	-0.0554
AACCGAGT	0.0301
GCCGAGAC	0.042
GAGCTCAC	-0.0616
ATCAAACA	0.121
AAGTCGGA	0.113
CTGATAAG	0.0499
GCGTCGAC	0.113
ACAGTTAA	-0.0587
ATGTCCGA	-0.1
CTATCTTA	-0.069

Sample 3
Target: Sal-like protein 4, full length isoform A (SALL4, Homo sapiens, UniProt Q9UJQ4, residues 1-1053)
Sequence of UniProt Q9UJQ4 (whole entry, looked up): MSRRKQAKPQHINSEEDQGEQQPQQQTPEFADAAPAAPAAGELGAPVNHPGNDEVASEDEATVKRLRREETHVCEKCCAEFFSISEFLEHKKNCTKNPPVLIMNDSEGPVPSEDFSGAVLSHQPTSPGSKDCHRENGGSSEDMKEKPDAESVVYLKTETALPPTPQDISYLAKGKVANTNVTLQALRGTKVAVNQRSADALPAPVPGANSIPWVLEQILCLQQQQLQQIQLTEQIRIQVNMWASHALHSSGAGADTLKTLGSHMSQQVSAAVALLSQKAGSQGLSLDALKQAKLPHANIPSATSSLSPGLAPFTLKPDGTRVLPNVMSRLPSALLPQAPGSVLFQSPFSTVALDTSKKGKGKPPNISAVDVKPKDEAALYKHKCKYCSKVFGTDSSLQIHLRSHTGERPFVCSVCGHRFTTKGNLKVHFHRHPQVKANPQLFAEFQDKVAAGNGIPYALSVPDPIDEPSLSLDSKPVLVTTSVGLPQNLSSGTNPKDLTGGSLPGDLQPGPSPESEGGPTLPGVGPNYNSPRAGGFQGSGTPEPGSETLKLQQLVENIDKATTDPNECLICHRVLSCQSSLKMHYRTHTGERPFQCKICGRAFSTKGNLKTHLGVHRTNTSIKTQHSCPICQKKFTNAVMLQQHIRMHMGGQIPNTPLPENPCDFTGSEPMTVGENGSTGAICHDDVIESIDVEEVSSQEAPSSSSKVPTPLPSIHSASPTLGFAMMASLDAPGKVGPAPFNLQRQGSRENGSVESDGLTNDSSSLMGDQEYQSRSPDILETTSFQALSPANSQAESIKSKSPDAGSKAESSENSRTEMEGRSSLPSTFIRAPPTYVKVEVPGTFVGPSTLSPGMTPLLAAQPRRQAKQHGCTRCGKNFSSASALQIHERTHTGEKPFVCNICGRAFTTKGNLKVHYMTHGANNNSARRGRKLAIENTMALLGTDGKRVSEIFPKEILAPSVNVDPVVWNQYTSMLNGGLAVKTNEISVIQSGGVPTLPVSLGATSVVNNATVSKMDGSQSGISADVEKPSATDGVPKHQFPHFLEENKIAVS
Technique: universal PBM
Molecule type: double-stranded DNA, one strand shown
Medium: in vitro
Concentration: 600 nM
Notes: 8-mer, flanks averaged, mean of replicates
Reading: higher = stronger binding
Oligonucleotide	E-score
CCTCTGCA	-0.0937
AAATCTGA	0.136
ATACTTTG	0.268
CCTGGTCC	-0.399
AGATTAGC	0.0719
GGTATTAA	0.179
GGGTCGCA	-0.0899
GATCTGGA	-0.021
ATCGGTAC	-0.0625
AGAGGGAT	-0.0293
CATTCTCA	0.195
AAATAAAG	0.168
GAAGACGA	-0.14
ATATGCAG	0.174
CCGGAAGC	-0.31
GTCCCACA	-0.208

Sample 4
Target: Interferon regulatory factor 7, full length, phosphomimetic (IRF7, Homo sapiens, UniProt Q92985, residues 1-503, S101K/S471D/S472D/S475D/S476D/S477D/S483D/S484D/S487D)
Sequence of UniProt Q92985 (whole entry, unmodified, looked up): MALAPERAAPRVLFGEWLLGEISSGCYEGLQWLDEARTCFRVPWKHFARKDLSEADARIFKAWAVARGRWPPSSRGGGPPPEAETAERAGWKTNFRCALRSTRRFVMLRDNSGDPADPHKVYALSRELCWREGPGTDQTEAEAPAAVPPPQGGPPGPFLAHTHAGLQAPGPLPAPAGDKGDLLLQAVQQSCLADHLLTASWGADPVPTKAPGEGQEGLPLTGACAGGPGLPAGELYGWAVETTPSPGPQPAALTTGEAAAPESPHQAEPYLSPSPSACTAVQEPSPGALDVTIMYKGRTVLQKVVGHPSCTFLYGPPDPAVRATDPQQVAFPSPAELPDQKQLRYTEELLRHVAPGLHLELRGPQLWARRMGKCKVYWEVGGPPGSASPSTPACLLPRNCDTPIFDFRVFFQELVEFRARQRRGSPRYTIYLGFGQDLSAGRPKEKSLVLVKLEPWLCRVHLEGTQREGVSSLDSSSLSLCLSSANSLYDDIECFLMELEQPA
Technique: protein-binding microarray
Molecule type: double-stranded DNA, one strand shown
Medium: in vitro
Concentration: 250 nM
Notes: 60-bp whole probe
Added: salmon DNA 0.4 mg/ml
Relative to: random background probes
Reading: higher = stronger binding
All sequences stand within: GCCTAGCAC … GTCTTGATTCGCTTGACGCTGCTG
Oligonucleotide	log fluorescence
TTAGATATCGGGACCGGATTAGTGCTA	0.608 z-score
GACGGTAACGACACTGGGGACGTGCTA	-0.484 z-score
GACGGTCTCGGTATCGGTACGTGCTAG	1.92 z-score
TCATTTTTTGTAATCGAACTGTGCTAG	0.652 z-score
GACGGTTGCGGTTTCGGGACGTGCTAG	4.52 z-score
GACGGCCTCGGTATCGGGACGTGCTAG	0.257 z-score
GACGATATCGGGTATCCAGACGTGCTA	-0.2 z-score
TGTGGCTTAGTTTGTCAAAAAGTGCTA	0.0886 z-score
GACGGACTGGGGACTGCGGACGTGCTA	-0.846 z-score
TTAGGTCTCTGTCTCGGTTAGTGCTAG	0.8 z-score
GACGGTATCGTTTTCGGGACGTGCTAG	4.02 z-score
GACGGTCTCGGTCTCGGTACGTGCTAG	1.16 z-score
GGGACTTTGAATTAGAAAGAGTGCTAG	-0.0512 z-score
TTAGATTTCGGGTTTCGGTTAGTGCTA	7.48 z-score
TAAGGTCTCCTACTGCTTTAGTGCTAG	-0.134 z-score
GACGATTTAGGGTTTCGAGACGTGCTA	2.15 z-score
CTTTTTATGCTTTCTTTAACTGTGCTA	2.47 z-score
TCATCATTGCCTATTTTTCAGTGCTAG	1.02 z-score
TCAGCATTCCCTTTCTCACTGTGCTAG	0.576 z-score
ATAGGACTGGGTCTCGGTTAGTGCTAG	0.887 z-score
TCACTTTTCTGTTGTCTGACTGTGCTA	1.58 z-score
GACAGTATCCTTATCCTGACGTGCTAG	0.359 z-score
GACGGTTTCGTTTCCCTGACGTGCTAG	13.6 z-score
TTAGAACTCGGGACTGGATTAGTGCTA	-0.432 z-score
GACGCACTGCTACTGCTGACGTGCTAG	-0.353 z-score

Sample 5
Target: Prothrombin, mature alpha-thrombin (F2, Homo sapiens, UniProt P00734)
Technique: aptamer microarray, sandwich
Molecule type: DNA with 2'F-ANA
Medium: in vitro
Concentration: 200 nM
Notes: whole 15-mer aptamer, many near background
Added: Cy3 exosite-II aptamer, 400 nM
Reading: higher = stronger binding
Oligonucleotide: GGTTGGTGTGGTTGG
Modification	mean fluorescence intensity
2'F-ANA at 5 6 8 10 11 12	48.8 a.u.
2'F-ANA at 1 3 4 8 15	288 a.u.
2'F-ANA at 1 2 4 5 6 13	47.4 a.u.
2'F-ANA at 1 3 5 8 11	58.9 a.u.
2'F-ANA at 5 6 7 9 12	178 a.u.
2'F-ANA at 1 6 8 9 11 13	141 a.u.
2'F-ANA at 1 2 4 5 8 10 13 14	55.6 a.u.
2'F-ANA at 1 7 8 10 11 13	56.1 a.u.
2'F-ANA at 3 4 5 6 8 9 10 15	48.3 a.u.
2'F-ANA at 2 6 7 10 14 15	82.4 a.u.
2'F-ANA at 3 4 7 10 12 13 14 15	225 a.u.
2'F-ANA at 2 3 5 7 9 10 11 13 15	54.4 a.u.
2'F-ANA at 2 4 6 8 9 12 14	109 a.u.
2'F-ANA at 3 9 13 15	842 a.u.
2'F-ANA at 1 2 3 5 6 9	66.7 a.u.
2'F-ANA at 1 2 5 7 11 12 14	43.5 a.u.
2'F-ANA at 3 4 6 7 8 9 10 11 12 13 15	221 a.u.
2'F-ANA at 5 8 10 11 12 14 15	44.6 a.u.
2'F-ANA at 2 3 5 6 7 8 9 11 15	98.9 a.u.
2'F-ANA at 5 6 10 12 13 14	45.7 a.u.
2'F-ANA at 1 7 10 11 13 15	51.9 a.u.
2'F-ANA at 1 2 3 4 6 9 11 13	92.4 a.u.
2'F-ANA at 2 5 6 10 13	46.1 a.u.
